Measurements gathered from unrelated publications.
Several values in a cell are separate wells, animals, samples, runs or records. ± gives the spread as reported. In brackets after ≈: the same amount, converted by molar mass.
Chain of UniProt P03372 (whole entry, looked up): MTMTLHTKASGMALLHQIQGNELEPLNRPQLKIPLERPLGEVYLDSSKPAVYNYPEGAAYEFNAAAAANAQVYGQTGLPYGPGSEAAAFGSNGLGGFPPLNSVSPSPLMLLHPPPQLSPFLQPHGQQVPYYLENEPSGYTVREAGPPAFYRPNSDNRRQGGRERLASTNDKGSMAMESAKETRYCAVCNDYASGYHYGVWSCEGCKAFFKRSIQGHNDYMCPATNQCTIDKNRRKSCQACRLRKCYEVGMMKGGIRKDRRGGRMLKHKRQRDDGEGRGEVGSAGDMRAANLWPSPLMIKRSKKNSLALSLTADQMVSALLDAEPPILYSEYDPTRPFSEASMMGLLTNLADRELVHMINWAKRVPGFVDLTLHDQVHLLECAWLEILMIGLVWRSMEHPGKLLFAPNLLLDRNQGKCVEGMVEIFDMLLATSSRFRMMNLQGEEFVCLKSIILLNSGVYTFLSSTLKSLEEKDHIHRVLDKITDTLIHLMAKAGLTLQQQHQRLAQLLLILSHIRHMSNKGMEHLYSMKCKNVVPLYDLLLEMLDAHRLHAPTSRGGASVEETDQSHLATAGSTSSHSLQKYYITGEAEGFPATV
Chain of UniProt P23458 (whole entry, looked up): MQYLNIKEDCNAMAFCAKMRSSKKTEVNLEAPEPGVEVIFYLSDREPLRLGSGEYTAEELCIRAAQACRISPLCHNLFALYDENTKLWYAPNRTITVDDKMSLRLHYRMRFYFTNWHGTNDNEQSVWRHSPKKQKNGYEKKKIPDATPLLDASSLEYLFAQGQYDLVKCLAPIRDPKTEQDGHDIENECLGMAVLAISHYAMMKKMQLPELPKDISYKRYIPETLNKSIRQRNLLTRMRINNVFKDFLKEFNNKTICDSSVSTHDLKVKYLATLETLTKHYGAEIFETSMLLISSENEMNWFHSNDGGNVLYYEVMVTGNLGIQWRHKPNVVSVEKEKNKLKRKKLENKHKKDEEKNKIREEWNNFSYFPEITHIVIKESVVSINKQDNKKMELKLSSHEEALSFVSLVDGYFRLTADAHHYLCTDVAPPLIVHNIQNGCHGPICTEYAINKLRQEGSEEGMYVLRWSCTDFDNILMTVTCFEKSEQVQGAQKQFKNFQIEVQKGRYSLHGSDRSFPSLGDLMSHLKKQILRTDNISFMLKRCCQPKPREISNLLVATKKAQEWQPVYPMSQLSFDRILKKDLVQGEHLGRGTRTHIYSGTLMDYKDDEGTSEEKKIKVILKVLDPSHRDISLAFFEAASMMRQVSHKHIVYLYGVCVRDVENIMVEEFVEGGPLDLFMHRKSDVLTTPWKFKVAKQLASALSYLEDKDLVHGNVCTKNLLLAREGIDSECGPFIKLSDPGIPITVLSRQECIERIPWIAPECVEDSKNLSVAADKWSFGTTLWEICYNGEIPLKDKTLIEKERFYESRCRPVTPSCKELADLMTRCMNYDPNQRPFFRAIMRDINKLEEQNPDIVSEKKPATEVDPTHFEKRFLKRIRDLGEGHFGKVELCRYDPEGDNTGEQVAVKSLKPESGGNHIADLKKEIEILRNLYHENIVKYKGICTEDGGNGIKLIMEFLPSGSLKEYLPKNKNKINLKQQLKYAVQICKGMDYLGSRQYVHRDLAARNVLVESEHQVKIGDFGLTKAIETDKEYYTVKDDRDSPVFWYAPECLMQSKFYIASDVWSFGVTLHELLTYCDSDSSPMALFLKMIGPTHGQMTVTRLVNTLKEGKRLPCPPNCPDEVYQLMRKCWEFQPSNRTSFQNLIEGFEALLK
Chain of UniProt P07949 (whole entry, unmodified, looked up): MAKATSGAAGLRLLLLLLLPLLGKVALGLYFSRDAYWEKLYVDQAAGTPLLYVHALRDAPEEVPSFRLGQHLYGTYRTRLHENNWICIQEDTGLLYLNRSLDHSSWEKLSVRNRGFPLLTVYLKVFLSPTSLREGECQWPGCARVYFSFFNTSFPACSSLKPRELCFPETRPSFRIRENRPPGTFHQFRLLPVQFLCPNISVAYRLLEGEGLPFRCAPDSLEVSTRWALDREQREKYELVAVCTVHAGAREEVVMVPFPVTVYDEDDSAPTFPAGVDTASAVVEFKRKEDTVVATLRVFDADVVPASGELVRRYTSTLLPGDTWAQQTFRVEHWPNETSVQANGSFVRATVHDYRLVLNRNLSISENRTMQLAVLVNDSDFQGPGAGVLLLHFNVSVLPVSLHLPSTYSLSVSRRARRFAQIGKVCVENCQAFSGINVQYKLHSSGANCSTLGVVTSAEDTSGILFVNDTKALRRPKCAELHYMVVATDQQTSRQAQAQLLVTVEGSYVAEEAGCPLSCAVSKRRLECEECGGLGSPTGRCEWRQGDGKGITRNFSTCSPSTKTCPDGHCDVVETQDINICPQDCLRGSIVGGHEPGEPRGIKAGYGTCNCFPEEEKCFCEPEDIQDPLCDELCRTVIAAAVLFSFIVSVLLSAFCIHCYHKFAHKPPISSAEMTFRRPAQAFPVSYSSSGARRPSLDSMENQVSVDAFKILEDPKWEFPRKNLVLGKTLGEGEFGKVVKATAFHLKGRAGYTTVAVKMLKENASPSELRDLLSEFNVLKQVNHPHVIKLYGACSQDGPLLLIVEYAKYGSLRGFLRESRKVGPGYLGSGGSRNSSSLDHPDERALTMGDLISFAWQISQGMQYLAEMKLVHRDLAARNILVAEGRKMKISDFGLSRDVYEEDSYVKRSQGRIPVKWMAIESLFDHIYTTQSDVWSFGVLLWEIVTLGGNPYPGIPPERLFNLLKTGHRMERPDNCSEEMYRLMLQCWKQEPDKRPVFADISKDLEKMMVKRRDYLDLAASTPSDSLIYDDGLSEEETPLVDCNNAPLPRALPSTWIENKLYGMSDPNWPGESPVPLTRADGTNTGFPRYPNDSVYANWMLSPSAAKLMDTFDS

Compound | tested on | assay | test system | setting | how to read | measurement | result
Cc1cc(C(=O)Nc2nc3cccc(C)c3n2[C@H]2CCCCN(C(=O)/C=C/CN(C)C)C2)ccn1 | Trypanosoma brucei | cell growth, Alamar Blue | 2T1 overexpressing Tb927.5.790 |  | reference: parental 2T1 | EC50 fold shift | 0.8 fold and 0.62 fold
CC1CCC2C(C)C(CCCOC(=O)C(Cc3ccc(N(CCCl)CCCl)cc3)NC(=O)OC(C)(C)C)OC3OC4(C)CCC1C32OO4 (stereo not shown) | MCF-10A | cell growth or viability, CCK-8 |  |  |  | IC50 | > 50 µM
C=C(NC(=O)c1csc(-c2nc3c(cc2O)-c2nc(cs2)C(=O)NC(C(C)O)C(=O)NC(=C(C)OC)c2nc(cs2)C(=O)NC2c4nc(cs4)C(=O)NC(COC(=O)c4c5c6c(cccc6n4O)COC(=O)C(OC4CC(C)(O)C(N(C)C)C(C)O4)C2OC5)c2nc-3cs2)n1)C(N)=O (stereo not shown) | Streptococcus viridans |  | 10 clinical isolates |  |  | MIC50 | 0.0078 µg/mL (≈ 5.43 nM)
Cc1cc(Oc2nc(N3CC[C@@H](c4ccncc4)C3)ncc2F)[nH]n1 | Mycobacterium tuberculosis | OD | H37Rv PurF CRISPRi knockdown | 0.001953 µM, together with: anhydrotetracycline low |  | normalised growth | 25% and 26% and 23%
O=C1NC2(CC2)COc2ncc(F)cc2[C@H]2COCCN2c2ccn3ncc1c3n2 |  |  | Sprague-Dawley rat, male, thymus | oral, 5 mg/kg/day, 4 weeks dosing, end of recovery |  | organ-to-brain weight ratio | 21.8 ± 6.2%
CC(C)CC(C(=O)N1CC2(CC1C#N)C(=O)Nc1ccccc12)N(C)C(=O)c1cc2c(F)cc(F)c(F)c2[nH]1 (stereo not shown) | human coronavirus 229E | viral replication | MRC-5 | 0.1 µM |  | inhibition | 100%
CN1C(=O)C(C2C3=C(CCCC3=O)Oc3ccc(Cl)cc32)C(=O)N(C)C1=O (stereo not shown) | 3T3-L1 pre-adipocytes | cell viability, MTT |  | 72 h |  | IC50 | 55.6 ± 2.03 µg/mL
Cc1ccc(OCCN(C)C)cc1C(=O)N[C@H](C)c1cc(-c2cnn(C3CNC3)c2)nc2ccccc12 | Vero E6 |  |  | 7.812 µM |  | viability | 107% and 104%
CS(C)(=O)=Nc1ccc(-c2ccc(-c3nc4cc(O[C@@H]5CO[C@H]6[C@@H]5OC[C@H]6O)[nH]c4cc3F)cc2)cc1 | Estrogen receptor (ESR1, Homo sapiens, UniProt P03372) | ligand displacement, radioligand |  | 10 µM |  | inhibition | 1%
COc1ccccc1-c1ccncc1C(=O)Nc1nnc(OCc2ccc(Cl)cc2)s1 | RPE-1 BRCA1 WT parental |  |  | 1 µM, average of 2 runs | reference: untreated | colony survival | 82.5%
CN(C)[C@H]1C[C@@]23CC[C@@]4(O2)C(=CC[C@]2(C)[C@@H](c5ccc6ccncc6c5)CC[C@H]24)C=C3[C@@H](O)[C@@H]1O | Tyrosine-protein kinase JAK1, JH1 kinase domain (JAK1, Homo sapiens, UniProt P23458) | probe labelling, inhibitor, KiNativ ATP probe MS | native lysate | 1 µM |  | inhibition | 7%
COc1ccccc1-c1n[nH]c2nc(NC3CCN(C(=O)Cc4ccc(F)cc4F)CC3)ncc12 |  | bead binding, competition bead pull-down, refers to: LINJ.27.2570 | Leishmania donovani axenic amastigote extract | 10 µM | reference: vehicle | relative abundance | 0.13
O=C1NC(=O)c2c1c1cc(F)c[n+]3c1c1c2c2cc(O)ccc2[n]1[Ru-4]312([N]=C=S)[S+]3CC[S+]1CC[S+]2CC3 (stereo not shown) | Proto-oncogene tyrosine-protein kinase receptor Ret (RET, Homo sapiens, UniProt P07949, V804L) | enzyme activity |  | 100 nM, human enzyme, together with: 10 µM ATP | reference: untreated | remaining activity | 11%
CC(C)[C@H]1NC(=O)C[C@H]2/C=C/CCSSC[C@@H](NC1=O)C(=O)N[C@H](Cc1cccc3ccccc13)C(=O)NCC(=O)O2 | Receptor tyrosine-protein kinase erbB-2 (ERBB2, Homo sapiens, UniProt P04626) | enzyme activity, inhibitor |  | 10 µM |  | inhibition | 1.6%
CC(C)(C)C(=O)OCOP(=O)(OCOC(=O)C(C)(C)C)C1CCCN(O)C1=O (stereo not shown) | M14 |  |  |  |  | GI50 | 0.693 µM
CCc1nc2ccccn2c1C(=O)NCc1ccc2oc(-c3ccc(OC(F)(F)F)cc3)nc2c1 | Mycolicibacterium smegmatis |  |  | 72 h |  | MIC | > 100 µM
CC[C@H](C)[C@@H]1NC(=O)[C@H](Cc2c[nH]cn2)NC(=O)[C@H](CC(N)=O)NC(=O)[C@H](CO)NC(=O)[C@H](CCC(N)=O)NC(=O)[C@@H](NC(=O)CN)CSSC[C@@H]2NC(=O)CNC(=O)[C@H](C)NC(=O)[C@H](CC(C)C)NC(=O)[C@@H]3CSSC[C@@H](C(=O)NCC(=O)O)NC(=O)[C@H](Cc4ccccc4)NC(=O)CNC(=O)[C@H](CC(N)=O)NC(=O)[C@@H]4CCCN4C(=O)CNC(=O)[C@H](CSSC[C@H](NC(=O)[C@H](CCCNC(=N)N)NC(=O)[C@H](CC(N)=O)NC(=O)[C@H](Cc4c[nH]cn4)NC(=O)[C@H](CCCCN)NC(=O)[C@H](CC(C)C)NC1=O)C(=O)N[C@@H](CCCCN)C(=O)N[C@@H](CCC(N)=O)C(=O)N[C@@H](CC(=O)O)C(=O)N[C@@H](CO)C(=O)N[C@@H](CC(=O)O)C(=O)N3)NC(=O)[C@H](C(C)C)NC2=O | HEK293-TB | Wnt1/sFRP-1 signalling |  |  |  | IC50 | < 10 µM
CSCC[C@H](N)C(=O)N[C@@H](C)C(=O)N[C@@H](CCCNC(=N)N)C(=O)N[C@@H](CCCNC(=N)N)C(=O)N[C@@H](CC(=O)O)C(=O)N[C@@H](CCCCN)C(=O)N[C@H](C(=O)N[C@@H](CC(=O)O)C(=O)N[C@@H](Cc1ccccc1)C(=O)N[C@@H](C)C(=O)N[C@@H](CCCNC(=N)N)C(=O)N[C@@H](CCCNC(=N)N)C(=O)N[C@@H](CCCNC(=N)N)C(=O)N[C@@H](CCCNC(=N)N)C(=O)NCCCCCC(=O)NCCCCC(NC(=O)CCCCCNC(=O)[C@H](CCCNC(=N)N)NC(=O)[C@H](CCCNC(=N)N)NC(=O)[C@H](CCCNC(=N)N)NC(=O)[C@H](CCCNC(=N)N)NC(=O)[C@H](C)NC(=O)[C@H](Cc1ccccc1)NC(=O)[C@H](CC(=O)O)NC(=O)[C@@H](NC(=O)[C@H](CCCCN)NC(=O)[C@H](CC(=O)O)NC(=O)[C@H](CCCNC(=N)N)NC(=O)[C@H](CCCNC(=N)N)NC(=O)[C@H](C)NC(=O)[C@@H](N)CCSC)[C@@H](C)O)C(=O)NCCCCC(NC(=O)C(CCCCNC(=O)CCCCCNC(=O)[C@H](CCCNC(=N)N)NC(=O)[C@H](CCCNC(=N)N)NC(=O)[C@H](CCCNC(=N)N)NC(=O)[C@H](CCCNC(=N)N)NC(=O)[C@H](C)NC(=O)[C@H](Cc1ccccc1)NC(=O)[C@H](CC(=O)O)NC(=O)[C@@H](NC(=O)[C@H](CCCCN)NC(=O)[C@H](CC(=O)O)NC(=O)[C@H](CCCNC(=N)N)NC(=O)[C@H](CCCNC(=N)N)NC(=O)[C@H](C)NC(=O)[C@@H](N)CCSC)[C@@H](C)O)NC(=O)CCCCCNC(=O)[C@H](CCCNC(=N)N)NC(=O)[C@H](CCCNC(=N)N)NC(=O)[C@H](CCCNC(=N)N)NC(=O)[C@H](CCCNC(=N)N)NC(=O)[C@H](C)NC(=O)[C@H](Cc1ccccc1)NC(=O)[C@H](CC(=O)O)NC(=O)[C@@H](NC(=O)[C@H](CCCCN)NC(=O)[C@H](CC(=O)O)NC(=O)[C@H](CCCNC(=N)N)NC(=O)[C@H](CCCNC(=N)N)NC(=O)[C@H](C)NC(=O)[C@@H](N)CCSC)[C@@H](C)O)C(N)=O)[C@@H](C)O (stereo partly shown) |  | micro-CT of femur | mouse C57BL/6 female, RANKL-induced bone loss, femur | intraperitoneal, 130 mg/kg, 50 h, together with: RANKL |  | trabecular separation | 1290 µm
CC[C@H](C)[C@H](NC(=O)[C@H](CO)NC(=O)[C@H](Cc1ccc(O)cc1)NC(=O)[C@H](Cc1ccc(O)cc1)NC(=O)[C@H](CC(N)=O)NC(=O)CNC(=O)[C@H](CO)NC(=O)[C@H](Cc1ccc(O)cc1)NC(=O)[C@H](CO)NC(=O)[C@H](CO)NC(=O)[C@H](CC(N)=O)NC(=O)COCCOCCNC(=O)CN1CCN(CC(=O)O)CCN(CC(=O)O)CCN(CC(=O)O)CC1)C(=O)N[C@@H](CC(C)C)C(N)=O [copper-64 labelled] |  | dynamic PET | tamoxifen-induced PDAC mouse model, metastases | 0.9 min, CLDN4-expressing tumours |  | maximum metastasis uptake | 20.7 %IA/cc
CCN(CC)C(=O)[C@@H]1C=C2c3cccc4c3c(cn4C(=O)c3ccco3)C[C@H]2N(C)C1 |  | magnetometer detection | mouse C57BL/6J male | intraperitoneal, dose not given, lower doses, 5 min blocks |  | time to peak head-twitch response | 10 to 15 min
CCc1nc2cc(Br)ccn2c1C(=O)NCc1ccc2oc(-c3ccc(Cl)cc3)nc2c1 | Mycolicibacterium smegmatis |  |  | 72 h |  | MIC | > 25 µM
COc1ccccc1-c1n[nH]c2nc(N[C@H]3CC[C@H](NS(=O)(=O)CC(C)C)CC3)ncc12 |  | bead binding, competition bead pull-down, refers to: LINJ.36.3100 | Leishmania donovani extract | 10 µM | reference: vehicle | relative abundance | 0.9

Excerpt of the above:
Compound | tested on | assay | test system | setting | how to read | measurement | result
C=C(NC(=O)c1csc(-c2nc3c(cc2O)-c2nc(cs2)C(=O)NC(C(C)O)C(=O)NC(=C(C)OC)c2nc(cs2)C(=O)NC2c4nc(cs4)C(=O)NC(COC(=O)c4c5c6c(cccc6n4O)COC(=O)C(OC4CC(C)(O)C(N(C)C)C(C)O4)C2OC5)c2nc-3cs2)n1)C(N)=O (stereo not shown) | Streptococcus viridans |  | 10 clinical isolates |  |  | MIC50 | 0.0078 µg/mL (≈ 5.43 nM)
O=C1NC2(CC2)COc2ncc(F)cc2[C@H]2COCCN2c2ccn3ncc1c3n2 |  |  | Sprague-Dawley rat, male, thymus | oral, 5 mg/kg/day, 4 weeks dosing, end of recovery |  | organ-to-brain weight ratio | 21.8 ± 6.2%
